# Published values from different studies.
# Numbered parts are unrelated; each lists some results of a single study.

# Series 1 — technique: RNA Bind-n-Seq; molecule type: RNA; sample: in vitro; tested at: 365 nM; relative to: no-protein control; reading: higher = stronger binding
# Target: RNA binding protein fox-1 homolog 2, RRM domain, GST-SBP tag (RBFOX2, Homo sapiens, UniProt O43251-10, residues 100-194)
# Notes: natural RNA segment, single round, ends assumed
# Shared flanks, not repeated: GGGAGUUCUACAGUCCGACGAUC … UGGAAUUCUCGGGUGCCAA
# Target sequence (chain): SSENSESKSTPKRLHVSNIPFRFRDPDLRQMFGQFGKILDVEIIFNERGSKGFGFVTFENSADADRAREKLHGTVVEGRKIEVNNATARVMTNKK
Oligonucleotide,RBNS enrichment (R)
GAGUCACUUCCAGUCCUCCUCAGAGGAUGUGAUGGUGGUAGGAGAGCCAACUCUGAUGGGAGGUGAGUUUGGGGACGAGGACGAAAGGCUAAUCACUAGAUUAGAAAACA,1.73
GCCCUGCAGCACUGCCCCAAGAAGAAGCUGUGCCUGCCCACUGGCACACAGCUGGCACUGGCACACACCUGUCCCAUGCCCACCCUGAGGGAUCAGGAGCAAACAGACCC,0.168
UGCCAACAGUGGACUCAAACGGCGUGACUACCAACCCUGUCCCCAGUUUUCUCCCAUUCCGUCGUCACCCGUGCCCCUCACCCACAAUCCCCUUGUUGGACACACUGCCU,0.632
GGAUCCAGCUCCUUCCCCUUCGGGUCUGGGGUGCAGACAUGGCAAGGCUCAAGGCUGUGCAGGCACAUAGGCUGGUGGCCUUGGGCCUUGGGGCUCAGCCACAGCCUGAC,0.314
UGCUGUUUUGUAAAAAGAAAAAGAAAAAAGAAGCCCAAACUAGUGAGAGUAAUAUCUAAUUAUCUCAUUUUUUGUAGGUCUGUGAUAAAGAACUUAGUCAUCCCUUCCAC,0.532
GUGCACCCAGCCUUUGAACAGAGCCUAGGGUCUGUAUGCCAUGACACUGGAAGUCAUAGAAAUUUCCCUGGUCAUGCUUUGUUUGAACUGUCACUGAAUGAACCUUAUCG,1.56
GCCAGGGGCAGGAAAUGAAGCCCUGCUGUCGGUCACCUCUACUAAAUCAAGCAAAUGGUCCUCUAUUAAGUAAAAAGUAGAAGAGCAAUGUGGUUCUUUUCAGUGUGCCU,0.496
CUUUGCUUGUUGAAUAAUGCACUUUAAAACAAGGAACCGUAUCAGGCCAGCAUGGUGGCUCAUGCCUGUAAUCCCAGCAUUUUGGGAGGCUCAGGCAGACAAAUCGCUCU,28.6

# Series 2 — technique: protein-binding microarray; molecule type: double-stranded DNA, one strand shown; sample: in vitro; tested at: not given; reading: higher = stronger binding
# Target: Protein max, full length (MAX, Homo sapiens, UniProt P61244-2, residues 1-151)
# Notes: k-mer, scored over probes, only values ≥0.25
Oligonucleotide,E-score
CTCATGCA,0.305
ACCAGGTG,0.372
AGCCCATG,0.266
CGCCGCGC,0.308
ACATGCGC,0.442
ATCTCATG,0.322
AACCACGG,0.253
ATGTGGTA,0.315
CGATCACG,0.344
ATGCCGCA,0.3
GTGTGGCA,0.305
CGTGTCCA,0.33
ATGCGACA,0.3
GCGATCAC,0.272
CGTGGTAA,0.39
CAGGCGGA,0.263
ACCCGTGG,0.27
AGTACCAC,0.301
CACGAGCA,0.326
ACTGCACG,0.325
CGTGTTCC,0.373
ATGTGTCC,0.37
CAACGTGC,0.467
GCCATGTA,0.265

# Series 3 — technique: protein-binding microarray; molecule type: hairpin DNA; sample: in vitro; tested at: not given; relative to: not given; reading: higher = stronger binding
# Target: Cellular tumor antigen p53, full length (TP53, Homo sapiens, UniProt P04637, residues 1-393)
# Notes: whole hairpin DNA, median over replicate spots
Oligonucleotide,median fluorescence [a.u.]
CGGACATGCCCGGGCATGTCTCCTGACATGCCCGGGCATGTCCGACACTC (5mC at 10),19500
CCACACGTGATGGCATGCCTTCCTAGGCATGCCATCACGTGTGGACACTC,7180
CCACACGCGGTGGCATGCCTTCCTAGGCATGCCACCGCGTGTGGACACTC (5mC at 8 36),6750
CCACACGTGGTGGCATGCCTTCCTAGGCATGCCACCACGTGTGGACACTC (5mC at 6 38),7300
CCACACGTGGAGGCATGCCTTCCTAGGCATGCCTCCACGTGTGGACACTC,8520
CGGACATGCCCGGGAATGTCTCCTGACATTCCCGGGCATGTCCGACACTC,8380
CCACACGTGGTCGCATGCCTTCCTAGGCATGCGACCACGTGTGGACACTC (5mC at 12 32),5700
CGGACATGGCCGGGCATGTCTCCTGACATGCCCGGCCATGTCCGACACTC,15300
CGGACGTGCCCGGGCATGTCTCCTGACATGCCCGGGCACGTCCGACACTC,15600
CGGACATGCCCGGCGATGTCTCCTGACATCGCCGGGCATGTCCGACACTC (5mC at 14 30),9510
CGGAGATGCCCGGGCATGTCTCCTGACATGCCCGGGCATCTCCGACACTC,13200
CGGACATGCCTGGGCATGTCTCCTGACATGCCCAGGCATGTCCGACACTC,18500
CGGACATGCCCGGGCGTGTCTCCTGACACGCCCGGGCATGTCCGACACTC (5mC at 29),16600
CGGACATGCCCGGGCGTGTCTCCTGACACGCCCGGGCATGTCCGACACTC (5mC at 15 29),15300
CGGACATGCCCGGGCATGTCTCCTGACATGCCCGGGCATGTCCGACACTC (5mC at 31),17900
CCACACCTGGTGGCATGCCTTCCTAGGCATGCCACCAGGTGTGGACACTC (5mC at 7),6750
CCACACGGGGTGGCATGCCTTCCTAGGCATGCCACCCCGTGTGGACACTC,6470
CCACACTTGGTGGCATGCCTTCCTAGGCATGCCACCAAGTGTGGACACTC,6440

# Series 4 — technique: protein-binding microarray; molecule type: double-stranded DNA, one strand shown; sample: in vitro; tested at: 940 nM top; notes: 60-bp whole probe; with: salmon DNA 0.4 mg/ml; relative to: random background probes; reading: higher = stronger binding; shared flanks, not repeated: GCCTAGCAC … GTCTTGATTCGCTTGACGCTGCTG
# Target: Interferon regulatory factor 5, full length, phosphomimetic (IRF5, Homo sapiens, UniProt Q13568-2, residues 1-514, S451D/S453D/S456D/S462D)
Oligonucleotide,fitted relative affinity [z-score]
TCAGTTTTCTAATGTTTTACTGTGCTA,0.997
GACGGTATCGGACTGGGGACGTGCTAG,2.55
TACTGTCTGTTTCCTCTTTCTGTGCTA,1.85
TTAGAACTGTGTTTCGATTAGTGCTAG,2.75
TTAGGTTTCGACTTTCGGTCAGTGCTA,8.92
GGCCGTCTGAGCTCCGTAGCGTGCTAG,-0.861
TTAGATATCAGTATAGATTAGTGCTAG,-0.113
ATTGTTTCCTCTTTCACTGCGTGCTAG,2.22
TTAGGTATCGGTCTCGGTAAGTGCTAG,10.4
GACGGACCGGGGACTGGGGACGTGCTA,-0.209
TTAGATATCGGGACTGGGTTAGTGCTA,0.0153
TAAGGACTGGACTTTCGGTTAGTGCTA,2.93
CAATATATATATTATATATTTGTGCTA,0.406
TCATCTCTACATGTGTTACTGTGCTAG,0.517
GACGGATTGCTACTGCTGACGTGCTAG,-0.548
TTAGGACTGGGGTATCGGTAAGTGCTA,1.85
TACGATATCAGTCTCGAGACGTGCTAG,1.67
TCACATATTCTCTTCTTACTGTGCTAG,1.89
TTAGATTTCATTTCCGATTAGTGCTAG,1.28

# Excerpt of the above (series 4):
Oligonucleotide,fitted relative affinity [z-score]
TTAGGACTGGGGTATCGGTAAGTGCTA,1.85
GACGGACCGGGGACTGGGGACGTGCTA,-0.209
GACGGATTGCTACTGCTGACGTGCTAG,-0.548
TTAGGTATCGGTCTCGGTAAGTGCTAG,10.4
CAATATATATATTATATATTTGTGCTA,0.406
TTAGATATCGGGACTGGGTTAGTGCTA,0.0153
TCATCTCTACATGTGTTACTGTGCTAG,0.517
TCAGTTTTCTAATGTTTTACTGTGCTA,0.997
TACTGTCTGTTTCCTCTTTCTGTGCTA,1.85
TTAGATTTCATTTCCGATTAGTGCTAG,1.28
